{"data": "Assay results of several laboratories", "note": "A part holds a random share of what one study measured. Changes are numbered by the printed parent chain."}
{"data": "Set 1", "target": "Max-binding protein MNT, bHLH-zipper, MAX partner unstated (MNT, Homo sapiens, UniProt Q99583, residues 220-300)", "technique": "protein-binding microarray", "molecule type": "double-stranded DNA, one strand shown", "sample": "in vitro", "tested at": "not given", "setting": "k-mer, scored over probes, only values ≥0.25", "direction": "higher = stronger binding", "Residues (chain)": "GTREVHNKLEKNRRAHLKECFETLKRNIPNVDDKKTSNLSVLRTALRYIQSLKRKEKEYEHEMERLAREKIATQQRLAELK"}
{"Oligonucleotide": "ACGCGTCT", "E-score": 0.271}
{"Oligonucleotide": "CTCCCCAC", "E-score": 0.348}
{"Oligonucleotide": "AGCACGGG", "E-score": 0.324}
{"Oligonucleotide": "CGCGCACA", "E-score": 0.277}
{"Oligonucleotide": "ATAGCACG", "E-score": 0.365}
{"Oligonucleotide": "ACACGATG", "E-score": 0.32}
{"Oligonucleotide": "ACGTGTAA", "E-score": 0.418}
{"Oligonucleotide": "CACACATG", "E-score": 0.447}
{"data": "Set 2", "target": "CCND1, cyclin fold, Cln2 fusion (human)", "technique": "yeast growth competition, sequencing", "sample": "yeast", "setting": "strong parent motif", "reference": "not given", "direction": "higher = stronger binding", "parent": "INSM1 docking peptide (human); PKAIRKLHFEDEV"}
{"Variant": "PKAIRKLHTEDEV [F9T]", "normalised enrichment score": 0.0156}
{"Variant": "PKCIRKLHFEDEV [A3C]", "normalised enrichment score": 4.47}
{"Variant": "PKAIRKLTFEDEV [H8T]", "normalised enrichment score": 6.26}
{"Variant": "PKAIRKLHFEDRV [E12R]", "normalised enrichment score": 2.38}
{"Variant": "PKAIRKLHFEDFV [E12F]", "normalised enrichment score": 3.88}
{"Variant": "PKAIRKLHFEKEV [D11K]", "normalised enrichment score": 2.46}
{"Variant": "PKAIRKAHFEDEV [L7A]", "normalised enrichment score": -0.0523}
{"Variant": "PWAIRKLHFEDEV [K2W]", "normalised enrichment score": 2.51}
{"data": "Set 3", "target": "RING finger protein unkempt homolog, zinc fingers 1-6, SBP tag (UNK, Homo sapiens, UniProt Q9C0B0, residues 30-357)", "technique": "RNA Bind-n-Seq", "molecule type": "RNA", "sample": "in vitro", "tested at": "100 nM", "setting": "RNA with constant flanks, vertebrate orthologous sites, ends assumed", "reference": "input RNA pool", "direction": "higher = stronger binding", "all sequences stand within": "GGGAGUUCUACAGUCCGACGAUC … CAACAGAGGAUUGAGCAUCA", "UniProt Q9C0B0, sequence (30-357, looked up)": "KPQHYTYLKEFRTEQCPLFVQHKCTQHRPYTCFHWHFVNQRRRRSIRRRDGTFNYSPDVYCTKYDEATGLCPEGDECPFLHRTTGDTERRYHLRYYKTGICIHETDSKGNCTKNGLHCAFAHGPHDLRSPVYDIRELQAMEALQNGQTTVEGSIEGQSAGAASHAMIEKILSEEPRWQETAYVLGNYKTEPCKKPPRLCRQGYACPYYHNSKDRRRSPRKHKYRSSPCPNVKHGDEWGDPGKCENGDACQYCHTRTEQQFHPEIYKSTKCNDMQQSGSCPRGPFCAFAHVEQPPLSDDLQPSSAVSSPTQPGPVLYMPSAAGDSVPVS"}
{"Oligonucleotide": "GUGGGGAUGAGGGUGGGAUGGGAAAGGGAUGUAUGGAUGUUAUUGGCAUUUUUAAGUGUUUAGAGUUUUUUGGGGUUUGGGGUGGUUUUUUCCUUGUUUUCCUUUUUUCCUUUUAAUUGG", "bound/input enrichment": "2.12 ratio"}
{"Oligonucleotide": "GCACAUGCCGCUAUCACCAAAAGCAAACUGCCACUUUUCAAAUUUCAUUCAGAGCUGUUUUAGUGUUUCCUAUUCCCUACCCUUCCCACUACGUUCAAUGAUGAAAUAGCCUCAGUUGUC", "bound/input enrichment": "1.89 ratio"}
{"Oligonucleotide": "GAACCUAAACGUAUAGCAAAAGAGCCAAGCAGUAGCAGUUUUUGUAAAUGUAAAAAUAAUUAGAUCCAGACUUUGUUUCCUUCCAUUUUAAAAAUAAAAAAUACCUCAGUGCUAUGUUUU", "bound/input enrichment": "1.07 ratio"}
{"Oligonucleotide": "CCCUCUGAACCCCAUAUCUUCUGUUUCAUAGUGCAGAAGUAUUCUUUUCAAUUAUAUUACUAGUGGACUUGUUUUAAUUUUAGAGAAACUUUCAGUACAGAUACUGUGAGCUUACAUGGA", "bound/input enrichment": "2.95 ratio"}
{"Oligonucleotide": "CCUUCUAUUCAGGGUUGGGCUCAUCAAUAAAAGAUGUAAUAUUUGCAACAACUGUAUUAUAUAACUAGUUAAGUUGGGUUGAAUAUUUUUUUAUUAGCCUGUAAAUAAAGAUGGCAUCUU", "bound/input enrichment": "0.211 ratio"}
{"Oligonucleotide": "AAACUUAGAAAUUGGAGUGAAAGCAGAAUCUAGCAUAAGUAAAACAAGCAUGAAAUGAUCACCACACUCAGUACAACACAGCCUAAGCUGCCACUUAGGGUAGCUAUGUGAAAUAAAAUC", "bound/input enrichment": "2.25 ratio"}
{"Oligonucleotide": "GUGACUUUGGAAGUCCGCUCAUCAUCUGUGCAGAGUCUAGCCGGUUCCGGGCCUUGCAGUAUUGUUUUUCUUUGCUGCACCCGAGACCUCUGUCGCAACCAUGCUCCGCCAUAUCGUCGG", "bound/input enrichment": "0.131 ratio"}
{"Oligonucleotide": "AGAUUUGGACCUUGGAGCCGAACUAGAGACUAGCAAAAGUAAAGCAGACUUGUAAAAUUAUAGUCGUAUGCAGCUGCACAACAAAAGCACCACCACUAGCAGCUGUGUUAAAGGAUUUAU", "bound/input enrichment": "0.436 ratio"}
{"Oligonucleotide": "UUUUUAAAGUUUUUUUUAAUUUAAUUUUUUCCUUUUGGGGAUACAGUUUGCUCUACCAAAUAGUGAUCGUAACAAAUUGAUCUGUUUUGGAUGUUGCUAUAGUGACAUGCAGUUAUAUAU", "bound/input enrichment": "1.38 ratio"}
{"data": "Further values, each from its own experiment"}
{"Substance": "PhoQ, residues 284 288 289 292 302 303 NLALSC", "target": "PhoP, residues 12 14 15 18 19 NQCAL (Escherichia coli, UniProt P23836)", "test": "Sort-seq, item: YFP reporter", "system": "E. coli", "setting": "PhoQ-PhoP variant library, together with: 10 µM Mg2+", "scale": "reference: high Mg2+ state, higher = stronger signaling", "measurement": "fold induction", "result": 0.94}
{"note": "Repeated from above (set 3):"}
{"Oligonucleotide": "CCCUCUGAACCCCAUAUCUUCUGUUUCAUAGUGCAGAAGUAUUCUUUUCAAUUAUAUUACUAGUGGACUUGUUUUAAUUUUAGAGAAACUUUCAGUACAGAUACUGUGAGCUUACAUGGA", "bound/input enrichment": "2.95 ratio"}
{"Oligonucleotide": "GCACAUGCCGCUAUCACCAAAAGCAAACUGCCACUUUUCAAAUUUCAUUCAGAGCUGUUUUAGUGUUUCCUAUUCCCUACCCUUCCCACUACGUUCAAUGAUGAAAUAGCCUCAGUUGUC", "bound/input enrichment": "1.89 ratio"}
{"Oligonucleotide": "GUGGGGAUGAGGGUGGGAUGGGAAAGGGAUGUAUGGAUGUUAUUGGCAUUUUUAAGUGUUUAGAGUUUUUUGGGGUUUGGGGUGGUUUUUUCCUUGUUUUCCUUUUUUCCUUUUAAUUGG", "bound/input enrichment": "2.12 ratio"}
{"Oligonucleotide": "CCUUCUAUUCAGGGUUGGGCUCAUCAAUAAAAGAUGUAAUAUUUGCAACAACUGUAUUAUAUAACUAGUUAAGUUGGGUUGAAUAUUUUUUUAUUAGCCUGUAAAUAAAGAUGGCAUCUU", "bound/input enrichment": "0.211 ratio"}
